Measurements collected from several papers.
Protocols differ between the studies behind these lines. Several values in a cell are separate wells, animals, samples, runs or records. ± gives the spread as reported.

Structure (SMILES) | assay | test system | conditions | scale | measurement | value
NC(=S)NN=Cc1ncccc1N | LC-MS/MS | human, plasma | oral, dose not given, 1 weeks, estimated over one week | relative to: intravenous regimen | drug exposure ratio | 2.5 fold
COc1cc(NC(=O)CCN2CCC(OC(=O)Nc3ccccc3-c3ccccc3)CC2)c(Cl)cc1CNC[C@H](O)c1ccc(O)c2[nH]c(=O)ccc12 | equilibrium dialysis | rat, plasma | – | – | fraction unbound | 0.0076
CCN1CCN(Cc2ccc(NC(=O)c3ccc(C)c(NC(=O)c4cncc(-c5cccs5)c4)c3)cc2C(F)(F)F)CC1 | LC-MS/MS | C57BL/6 mouse, plasma | intraperitoneal, 20 mg/kg single dose, 24 h | – | plasma concentration | 7 ng/mL and 5 ng/mL
Cc1ccc([C@@H]2O[C@H](CO)[C@@H](O)[C@H](O)[C@H]2O)cc1Cc1ccc(-c2ccc(F)cc2)s1 | measured: inorganic phosphorus | Japanese type 2 diabetes patients | 100 mg, day 5, 24 h urine collection | relative to: baseline | urinary phosphate excretion change | -8.52 mg
OC[C@H]1O[C@@H](c2ccc(Cl)c(Cc3ccc(O[C@H]4CCOC4)cc3)c2)[C@H](O)[C@@H](O)[C@@H]1O | measured: blood and lymphatic disorders | healthy Korean men | oral, dose not given | – | number of TEAEs | 1
CCn1c(C(=O)N(C2CC2)C2CC2)cc2c3c(ncn3C)c(Nc3cc(C)n(C)n3)nc21 | – | cancer patients | oral, 200 mg twice daily, day 15, 336.5 h | – | plasma concentration | 5500 ng/mL
C[C@@H](N)C1CCN(S(=O)(=O)c2cccc3cnccc23)CC1 | – | healthy volunteers | 75 mg, fasted | – | discontinuations due to TEAEs | 0%
COc1ccn2c(Nc3ccccc3F)c(-c3ccncn3)nc2c1 | – | peritoneal macrophages, Swiss mice | 5 days, 5% fetal calf serum | – | CC50 | 50.1 µM
Cc1cc(-c2nnc(N)nc2-c2ccc(F)cc2)cc(Cl)n1 | measured: decreased appetite, any grade | IO-naive CRC patients | oral, dose not given | – | incidence of treatment-related AE | 20%
CCc1cc(C(=O)NC)c2nccc(N3CCc4c(cc(Cn5ccnc5)cc4-c4cn(C)nc4C(F)(F)F)C3=O)c2c1 | measured: CREA | Sprague Dawley rat | oral, 100 mg/kg once daily, 7 days | relative to: vehicle | change in clinical chemistry or haematology parameter | -4.3%
C=CC(=O)Nc1cc(Nc2nccc(-c3cn(C)c4ccccc34)n2)c(OC)cc1N(C)CCN(C)C | storage stability | human dried blood spot | 10 d, on ice, HQC level | – | recovery | 73.1%
CCCCC[C@H](O)CC[C@@H]1[C@H]2Cc3cccc(OCC(=O)O)c3C[C@H]2C[C@H]1O | LC-MS/MS | Japanese PAH patients aged ≥sample A years, plasma | inhaled, 54 µg | – | geometric mean AUC(0-inf) | 1.11 ng·h/mL
NC1(C(=O)N[C@@H](CCO)c2ccc(Cl)cc2)CCN(c2nc[nH]c3nccc2-3)CC1 | – | metastatic CRPC patients | 480 mg b.i.d., any grade, treatment-related, added: enzalutamide 160 mg daily | – | incidence of Erythema | 0%
Cc1nc(-c2ccc(OCC(C)C)c(C#N)c2)sc1C(=O)O | – | healthy Chinese subjects, fasted | oral, 40 mg single dose | – | subjects with decreased appetite | 2.6%
O=C(Nc1nc2cccc(-c3ccc(CN4CCS(=O)(=O)CC4)cc3)n2n1)C1CC1 | measured: rheumatoid arthritis | rheumatoid arthritis patients | oral, 75 mg once daily, 4 weeks, any relatedness | – | treatment-emergent adverse events | 0%
Cn1cncc1-c1c(F)cncc1NC(=O)c1c(N)nn2cc(F)cnc12 | – | patients, advanced solid tumours | oral, 130 mg once daily | relative to: patients | grade ≥2 adverse events | 57.1%
COc1cc(Nc2ncc3c(n2)-c2ccc(Cl)cc2C(c2c(F)cccc2OC)=NC3)ccc1C(=O)O | measured: Hyperglycemia, all grades | cancer patients, phase 1/2 | oral, dose not given, added: pembrolizumab | – | patients with adverse event | 67%
C[C@H]1Oc2cc(cnc2N)-c2c(nn(C)c2C#N)CN(C)C(=O)c2ccc(F)cc21 | population PK | patients with severe renal impairment, plasma | oral, 100 mg, median, single dose | – | clearance | 80.2 mL/min
C[C@@H]1CN(CC(=O)N2CC(C)(C)c3nc(CO)c(Cc4ccc(F)cc4)cc32)[C@@H](CN2CCOC[C@H]2C)CN1 | – | male Sprague Dawley rats, bile duct cannulated, urine and bile | intravenous, 5 mg/kg, 24 h | relative to: dose | unchanged drug excreted | ~40%
CC[C@H](C)[C@@H]([C@@H](CC(=O)N1CCC[C@H]1[C@H](OC)[C@@H](C)C(=O)N[C@@H](Cc1ccccc1)C(=O)NCCCO)OC)N(C)C(=O)[C@@H](NC(=O)[C@H](C(C)C)N(C)C)C(C)C | – | Sprague Dawley rat | intravenous, 120 h, dosed as NaPi2b ADC, recovery-corrected | – | fraction excreted via other metabolism | 0.602
O=C1NCCc2nc(OCc3cccc(F)c3)ccc21 | measured: Ptosis | Sprague-Dawley rat male | oral, 100 mg/kg, 4 h | direction not given | Irwin test score | 0
CCn1cc(C(=O)N2CCOCC2)c(=O)c2cc(NC3Cc4ccccc4C3)cnc21 | – | human, fed | oral suspension, 1200 mg/day twice daily, day 1, median | – | Tmax | 3 h

Structure (SMILES) | assay | test system | conditions | scale | measurement | value
COc1ccnc(C(N)=O)c1O | aerobic dark soil incubation | sandy loam soil | 20 °C, persistence endpoint | – | DT50 | 9 days
CCOc1c([C@H](C)n2nc(C)c3c(N)ncnc32)cc(Cl)c(F)c1[C@@H]1CNC(=O)C1 | – | patients, monotherapy | oral, 20 mg once daily, cycle 1 day 15 | – | AUC(0-last) geometric mean | 11.1 µM·h
O=C(O)CCC(=O)O.[2H]C([2H])([2H])Oc1cc(C)c2[nH]ccc2c1CN1CC[C@@H](C2CC2)C[C@H]1c1ccc(C(=O)O)cc1 | multiple ascending dose | healthy Chinese subjects | 125 mg twice daily | – | subjects with muscle pain TEAE | 0%
CC(C)(C(=O)N1CCOc2c(C#N)cncc2C1)C(F)F | measured: conjunctival hyperaemia | human | oral, 15 mg twice daily, 14 days, multiple ascending dose | – | subjects with adverse event | 0%
O=C(c1cccnc1-c1ccncc1)N1CCC(O)(Cc2ccccc2)CC1 | – | healthy Japanese adults | oral, 100-300 mg twice daily, 21 days | – | participants with adverse events | 83.3%
CN1C(=O)[C@@H](NC(=O)c2nnc(Cc3ccccc3)[nH]2)COc2cccnc21 | – | human, plasma | oral, 600 mg once daily, day 14, median | – | Tmax | 4.02 h
C[C@@H]1CCO[C@H]2Cn3cc(C(=O)NCc4ccc(F)cc4F)c(=O)c(O)c3C(=O)N12 | – | human paediatric patients, weight sample B to under sample C kg, plasma | oral, 25 mg dispersible tablet, 24 h, steady state, geometric mean, population PK post-hoc, N 22 | – | trough concentration (C24) | 677 ng/mL
C[C@H]1Oc2cc(cnc2N)-c2c(nn(C)c2C#N)CN(C)C(=O)c2ccc(F)cc21 | – | human patients, plasma | oral, dose not given, cycle 2 day 1, geometric mean, added: avelumab | – | AUClast | 4870 ng·h/mL
[18F]c1ccc(-c2ccc3c(c2)[nH]c2ccncc23)cn1 | ex vivo biodistribution | B6SJL mouse, normal, spleen | intravenous, 30 min | – | SUV | 3.62 ± 1.07
Cc1ccc(S(=O)(=NC(=O)C(C)(C)C)c2ccccc2)cc1 (centres unmarked) | – | human liver microsomes | – | relative to: hepatic blood flow | metabolic stability | 61%
O=C(CCC(C(=O)[O-])N1CCN(C(CCC(=O)NCC(O)CO)C(=O)[O-])Cc2cccc(n2)CN(C(CCC(=O)NCC(O)CO)C(=O)[O-])CC1)NCC(O)CO.[Gd+3] (centres unmarked) | LC-ICP-MS | human plasma | pH 7.4, 37 °C | – | dissociation rate | 0.014 %/day
COc1cc(C(=O)N2CCC3(CC2)CC(=O)c2c(cnn2C(C)C)C3)cc(-c2ccc(C(=O)O)cc2)n1 | measured: HDL cholesterol | human, fasting serum | 30 mg every 12 h, day 13, adjusted geometric mean | relative to: baseline | percentage change from baseline | -11.2%
CC(=O)O[C@H]1C(=O)[C@@]2(C)[C@H]([C@H](OC(=O)c3ccccc3)[C@]3(O)C[C@H](OC(=O)[C@H](O)[C@@H](NC(=O)c4ccccc4)c4ccccc4)C(C)=C1C3(C)C)[C@]1(OC(C)=O)CO[C@@H]1C[C@@H]2O | measured: Fatigue | patients with advanced solid tumours | intravenous, dose not given, grade 1 and 2, possibly related to drug | – | adverse event incidence | 46%
CC[C@H](C)[C@H](NC(=O)[C@H](Cc1ccccc1)NC(=O)[C@H](CCC(=O)O)NC(=O)[C@H](CCCCNC(=O)COCCOCCNC(=O)COCCOCCNC(=O)CC[C@H](NC(=O)CCCCCCCCCCCCCCCCC(=O)O)C(=O)O)NC(=O)[C@H](C)NC(=O)[C@H](C)NC(=O)[C@H](CCC(N)=O)NC(=O)CNC(=O)[C@H](CCC(=O)O)NC(=O)[C@H](CC(C)C)NC(=O)[C@H](Cc1ccc(O)cc1)NC(=O)[C@H](CO)NC(=O)[C@H](CO)NC(=O)[C@@H](NC(=O)[C@H](CC(=O)O)NC(=O)[C@H](CO)NC(=O)[C@@H](NC(=O)[C@H](Cc1ccccc1)NC(=O)[C@@H](NC(=O)CNC(=O)[C@H](CCC(=O)O)NC(=O)C(C)(C)NC(=O)[C@@H](N)Cc1cnc[nH]1)[C@@H](C)O)[C@@H](C)O)C(C)C)C(=O)N[C@@H](C)C(=O)N[C@@H](Cc1c[nH]c2ccccc12)C(=O)N[C@@H](CC(C)C)C(=O)N[C@H](C(=O)N[C@@H](CCCNC(=N)N)C(=O)NCC(=O)N[C@@H](CCCNC(=N)N)C(=O)NCC(=O)O)C(C)C | 12-lead Holter ECG | healthy humans | subcutaneous, 1.5 mg once weekly, 30 h, steady state | relative to: placebo | QTcB change from baseline | 6.3 ms
OCc1nc2ccc(NCc3ccc(C(F)(F)F)cc3)cc2[nH]1 | – | Balb/c mouse, male, brain | intravenous, 1 mg/kg, 6 h | relative to: tissue over plasma | tissue/plasma ratio | 3.5 ± 0.2
O=C(Nc1ccc(OC(F)(F)Cl)cc1)c1cnc(N2CC[C@@H](O)C2)c(-c2ccn[nH]2)c1 | per treatment cycle, measured: amylase increase | human patients | oral, dose not given, 28 day cycle, dose-finding study | – | any-grade event rate | 8.2%
CNCc1ccc(-c2[nH]c3cc(F)cc4c3c2CCNC4=O)cc1 | – | human patients | oral, 360 mg twice daily, all grades | – | headache incidence | 25%
Nc1ncnc2c1c(Oc1cc(C(F)(F)F)ccn1)nn2[C@@H]1CCCC[C@H]1O | – | dog liver microsomes | – | – | metabolic stability | stable
C1=C/COCc2cc(ccc2OCCN2CCCC2)Nc2nccc(n2)-c2cccc(c2)COC/1 | LC-MS/MS | Sprague-Dawley rat, male, plasma | oral, 36 mg/kg, added: isavuconazole 20 mg/kg oral | – | Vz/F | 87.7 ± 91.6 L
O=C1CCC(=O)N1Cc1cc2nccc(-c3cc(Cl)cc4c3N([C@@H]3CNC5(CCC5)C3)CCC4)c2s1 | – | mouse, MV4-11 xenograft | 40 mg/kg twice daily, brief dosing holidays in some mice | – | body weight loss | > 15%
Cn1ncnc1[C@H]1c2n[nH]c(=O)c3cc(F)cc(c23)N[C@@H]1c1ccc(F)cc1 | – | human patients, plasma | oral, 600 µg/m2 twice daily day 1, day 5, dose level DL5, median, added: temozolomide 40 mg/m2 daily days 2-6 | – | CL/F at steady state | 3 L/h/m2
COc1ccc(/C=N/NC(=O)Cn2c(-c3ccc(S(C)(=O)=O)cc3)nc3cc(C)ccc32)cc1 | – | rat, stomach | concentration not given, 4 h | relative to: indomethacin | ulcer number | 33.3%
